Published values of several laboratories.
Each line is one published result; not all experiments were run side by side. Several values in a cell are separate wells, animals, samples, runs or records. ± gives the spread as reported.
Chain of UniProt O76090 (whole entry, unmodified, looked up): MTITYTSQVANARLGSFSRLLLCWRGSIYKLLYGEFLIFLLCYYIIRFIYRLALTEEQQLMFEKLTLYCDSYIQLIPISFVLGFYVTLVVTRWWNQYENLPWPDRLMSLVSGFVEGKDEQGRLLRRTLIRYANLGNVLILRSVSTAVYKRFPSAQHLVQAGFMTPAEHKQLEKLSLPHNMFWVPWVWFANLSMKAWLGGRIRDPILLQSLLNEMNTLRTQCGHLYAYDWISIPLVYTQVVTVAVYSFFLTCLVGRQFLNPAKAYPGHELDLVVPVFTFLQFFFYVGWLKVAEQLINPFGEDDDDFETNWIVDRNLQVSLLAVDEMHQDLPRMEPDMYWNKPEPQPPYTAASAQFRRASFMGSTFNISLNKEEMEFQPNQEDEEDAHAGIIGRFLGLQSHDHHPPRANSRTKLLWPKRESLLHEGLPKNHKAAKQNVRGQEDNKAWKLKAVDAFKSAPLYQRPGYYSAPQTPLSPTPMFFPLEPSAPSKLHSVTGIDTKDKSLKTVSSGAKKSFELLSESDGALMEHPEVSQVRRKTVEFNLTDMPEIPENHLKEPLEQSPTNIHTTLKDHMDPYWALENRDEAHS
Chain of UniProt Q8NER1 (whole entry, looked up): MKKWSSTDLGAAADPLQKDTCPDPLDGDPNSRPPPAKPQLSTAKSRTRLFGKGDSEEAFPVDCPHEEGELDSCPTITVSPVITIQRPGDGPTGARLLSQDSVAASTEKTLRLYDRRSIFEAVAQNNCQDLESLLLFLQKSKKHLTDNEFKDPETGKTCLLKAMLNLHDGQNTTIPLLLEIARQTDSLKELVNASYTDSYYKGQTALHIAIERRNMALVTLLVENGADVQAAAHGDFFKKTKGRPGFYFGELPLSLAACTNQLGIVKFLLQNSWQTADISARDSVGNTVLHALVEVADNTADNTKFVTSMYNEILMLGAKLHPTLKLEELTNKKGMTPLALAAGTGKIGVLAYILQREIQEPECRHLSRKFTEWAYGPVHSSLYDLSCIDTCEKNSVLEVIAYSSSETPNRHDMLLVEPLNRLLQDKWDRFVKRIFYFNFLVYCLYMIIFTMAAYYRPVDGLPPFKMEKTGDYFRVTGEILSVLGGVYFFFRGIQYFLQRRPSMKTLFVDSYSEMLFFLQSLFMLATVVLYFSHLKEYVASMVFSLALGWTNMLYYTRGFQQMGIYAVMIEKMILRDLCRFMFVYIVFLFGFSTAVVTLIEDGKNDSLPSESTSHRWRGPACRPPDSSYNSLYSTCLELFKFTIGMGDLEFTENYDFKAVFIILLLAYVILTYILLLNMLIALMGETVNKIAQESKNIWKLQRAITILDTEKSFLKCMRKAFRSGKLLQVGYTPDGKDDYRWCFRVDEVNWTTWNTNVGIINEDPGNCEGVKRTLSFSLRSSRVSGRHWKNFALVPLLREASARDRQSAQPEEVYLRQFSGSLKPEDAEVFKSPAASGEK
Chain of UniProt P11388 (whole entry, looked up): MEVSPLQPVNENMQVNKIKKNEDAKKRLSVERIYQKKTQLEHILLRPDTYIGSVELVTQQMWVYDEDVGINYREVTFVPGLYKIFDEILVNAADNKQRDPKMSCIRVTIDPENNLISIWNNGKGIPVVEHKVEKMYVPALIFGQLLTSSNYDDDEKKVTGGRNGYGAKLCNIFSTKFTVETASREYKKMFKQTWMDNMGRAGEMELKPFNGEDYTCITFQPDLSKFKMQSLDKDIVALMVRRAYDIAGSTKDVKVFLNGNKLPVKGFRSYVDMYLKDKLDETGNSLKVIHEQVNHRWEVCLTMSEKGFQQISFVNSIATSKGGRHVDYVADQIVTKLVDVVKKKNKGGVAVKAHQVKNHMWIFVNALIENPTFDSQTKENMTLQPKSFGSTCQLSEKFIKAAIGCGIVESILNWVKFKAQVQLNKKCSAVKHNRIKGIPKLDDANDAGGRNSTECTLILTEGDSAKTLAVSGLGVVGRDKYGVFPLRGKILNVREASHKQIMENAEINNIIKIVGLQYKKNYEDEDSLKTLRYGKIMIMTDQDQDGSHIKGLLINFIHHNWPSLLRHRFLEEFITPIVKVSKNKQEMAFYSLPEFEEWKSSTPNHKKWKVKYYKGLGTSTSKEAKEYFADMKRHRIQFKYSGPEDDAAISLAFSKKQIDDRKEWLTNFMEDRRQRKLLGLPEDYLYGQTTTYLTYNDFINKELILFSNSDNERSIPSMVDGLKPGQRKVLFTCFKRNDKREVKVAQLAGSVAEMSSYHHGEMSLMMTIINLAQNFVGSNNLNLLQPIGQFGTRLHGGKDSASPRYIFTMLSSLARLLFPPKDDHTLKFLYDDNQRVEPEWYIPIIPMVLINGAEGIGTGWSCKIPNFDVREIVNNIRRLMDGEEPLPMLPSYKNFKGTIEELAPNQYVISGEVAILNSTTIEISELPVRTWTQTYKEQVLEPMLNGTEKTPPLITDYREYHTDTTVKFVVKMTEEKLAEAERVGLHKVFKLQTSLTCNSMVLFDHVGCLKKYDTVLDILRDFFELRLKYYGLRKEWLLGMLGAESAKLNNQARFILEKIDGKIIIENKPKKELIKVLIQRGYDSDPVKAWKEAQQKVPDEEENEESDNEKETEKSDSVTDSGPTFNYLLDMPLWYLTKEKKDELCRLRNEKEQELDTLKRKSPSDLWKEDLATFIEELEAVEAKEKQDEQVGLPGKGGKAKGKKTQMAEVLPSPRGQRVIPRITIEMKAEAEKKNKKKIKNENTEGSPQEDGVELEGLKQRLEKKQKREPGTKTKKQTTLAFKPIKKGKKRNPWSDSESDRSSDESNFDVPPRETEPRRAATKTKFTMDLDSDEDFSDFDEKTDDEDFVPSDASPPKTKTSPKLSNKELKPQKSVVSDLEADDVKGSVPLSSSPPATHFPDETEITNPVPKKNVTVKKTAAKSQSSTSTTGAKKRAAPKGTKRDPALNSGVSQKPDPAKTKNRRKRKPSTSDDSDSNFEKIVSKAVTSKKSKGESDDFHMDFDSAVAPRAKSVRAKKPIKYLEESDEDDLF
Chain of UniProt Q9KCC6 (whole entry, unmodified, looked up): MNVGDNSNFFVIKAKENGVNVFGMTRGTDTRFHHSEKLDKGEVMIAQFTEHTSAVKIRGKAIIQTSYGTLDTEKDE
Chain of UniProt P21917 (whole entry, looked up): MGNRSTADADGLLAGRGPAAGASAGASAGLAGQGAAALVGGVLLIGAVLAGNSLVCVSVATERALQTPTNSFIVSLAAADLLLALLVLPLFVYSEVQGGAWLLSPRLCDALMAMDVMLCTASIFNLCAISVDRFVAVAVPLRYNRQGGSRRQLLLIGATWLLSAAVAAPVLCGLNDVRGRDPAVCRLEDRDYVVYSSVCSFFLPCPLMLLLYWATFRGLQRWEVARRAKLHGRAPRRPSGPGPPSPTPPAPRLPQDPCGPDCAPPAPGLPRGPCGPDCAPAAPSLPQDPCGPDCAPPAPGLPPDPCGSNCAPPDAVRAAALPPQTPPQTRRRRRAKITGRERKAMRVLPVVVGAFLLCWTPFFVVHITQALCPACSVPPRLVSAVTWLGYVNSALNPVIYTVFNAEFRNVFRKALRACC
Chain of UniProt Q96SW2 (whole entry, looked up): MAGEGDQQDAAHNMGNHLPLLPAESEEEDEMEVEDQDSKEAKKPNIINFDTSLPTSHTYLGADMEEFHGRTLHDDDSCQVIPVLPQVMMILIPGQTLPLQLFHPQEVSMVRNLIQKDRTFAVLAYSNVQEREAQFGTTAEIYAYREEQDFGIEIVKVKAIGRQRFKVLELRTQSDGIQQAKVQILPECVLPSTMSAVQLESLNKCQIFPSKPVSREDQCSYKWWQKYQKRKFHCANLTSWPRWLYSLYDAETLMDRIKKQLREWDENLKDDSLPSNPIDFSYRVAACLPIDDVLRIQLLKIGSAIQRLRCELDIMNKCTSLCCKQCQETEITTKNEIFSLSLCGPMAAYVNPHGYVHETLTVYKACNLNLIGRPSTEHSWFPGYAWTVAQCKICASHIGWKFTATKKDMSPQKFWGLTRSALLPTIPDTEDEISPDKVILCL
Chain of UniProt Q92207 (whole entry, looked up): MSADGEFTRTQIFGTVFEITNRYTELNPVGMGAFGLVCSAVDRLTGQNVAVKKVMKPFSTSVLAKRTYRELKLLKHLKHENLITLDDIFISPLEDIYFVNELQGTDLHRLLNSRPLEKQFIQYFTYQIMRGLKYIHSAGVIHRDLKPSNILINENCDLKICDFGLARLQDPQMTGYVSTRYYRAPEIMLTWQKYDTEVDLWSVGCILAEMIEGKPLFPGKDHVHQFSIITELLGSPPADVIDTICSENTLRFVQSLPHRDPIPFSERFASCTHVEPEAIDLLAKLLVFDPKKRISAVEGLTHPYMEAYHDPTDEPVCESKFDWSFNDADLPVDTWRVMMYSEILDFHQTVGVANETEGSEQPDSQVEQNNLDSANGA
Chain of UniProt P40337 (whole entry, looked up): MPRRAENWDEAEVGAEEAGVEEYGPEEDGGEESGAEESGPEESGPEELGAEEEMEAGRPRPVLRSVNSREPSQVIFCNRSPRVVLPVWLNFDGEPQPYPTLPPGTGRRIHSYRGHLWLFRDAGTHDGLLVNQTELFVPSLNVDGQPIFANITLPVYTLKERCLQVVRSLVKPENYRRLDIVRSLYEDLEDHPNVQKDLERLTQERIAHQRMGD
Chain of UniProt Q9UBL9 (whole entry, looked up): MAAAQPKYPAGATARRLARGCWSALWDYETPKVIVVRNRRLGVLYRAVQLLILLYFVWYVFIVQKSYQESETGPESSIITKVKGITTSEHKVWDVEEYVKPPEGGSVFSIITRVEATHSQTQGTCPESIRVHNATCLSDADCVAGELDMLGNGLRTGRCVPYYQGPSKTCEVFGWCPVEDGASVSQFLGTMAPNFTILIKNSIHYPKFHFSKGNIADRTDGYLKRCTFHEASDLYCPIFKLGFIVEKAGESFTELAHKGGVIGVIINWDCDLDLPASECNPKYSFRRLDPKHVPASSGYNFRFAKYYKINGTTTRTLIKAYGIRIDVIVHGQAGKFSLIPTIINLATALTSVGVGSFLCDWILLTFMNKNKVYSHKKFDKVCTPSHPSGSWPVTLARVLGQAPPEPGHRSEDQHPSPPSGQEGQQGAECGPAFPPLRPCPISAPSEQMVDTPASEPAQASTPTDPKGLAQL

O=c1nc(SCc2cc(F)cc(C(F)(F)F)c2)nc(SCc2ccc3sccc3c2)[nH]1
ATP hydrolysis rate (TOP2A (Homo sapiens, UniProt P11388); ATPase activity; 15.6 µM, added: ATP 0.05 mM): 0.633 µM/min and 0.405 µM/min

CC(=O)N[C@H](C(=O)N1C[C@H](O)C[C@H]1C(=O)NCc1ccc(-c2scnc2C)cc1)C(C)(C)SCCCCCCNC(=O)C[C@@H]1N=C(c2ccc(Cl)cc2)c2c(sc(C)c2C)-n2c(C)nnc21
cooperativity (BRD4/VHL, BD2; with elongins B/C (Homo sapiens, UniProt O60885+P40337); ITC; 25 °C, PROTAC:Brd4^BD2; reference: Kd binary over Kd ternary): 7

COCCC(=O)N1CCC(Oc2ccccc2)C1 (stereo not drawn)
fold enrichment (FBXW7 (Homo sapiens, UniProt Q969H0); binding, affinity selection mass spectrometry; reference: other proteins in batch): 0.817

Cc1ncccc1OC[C@@H]1CN(CCN2CCc3ccccc32)CCO1
inhibition (DRD4 (Homo sapiens, UniProt P21917); radioligand binding; concentration not given, added: [3H]N-methylspiperone): 92.7%

C#Cc1cccc(Oc2ccc(-c3nn([C@@H]4CCCN(C(=O)C=C)C4)c4ncnc(N)c34)cc2)c1
SILAC ratio (MAP3K20 (Homo sapiens, UniProt Q9NYL2); ABPP-SILAC; 1 µM, 1 h; reference: DMSO): 20

N[C@@H](Cc1c[nH]c2ccccc12)C(=O)O
ΔG (Transcription attenuation protein MtrB (mtrB, Halalkalibacterium halodurans, UniProt Q9KCC6); isothermal titration calorimetry; 25 °C, site 2 two-site model): -8.3 ± 0.1 kcal/mol

Nc1ncnc2c1ncn2[C@@H]1O[C@H](COP(=O)(O)OP(=O)(O)OP(=O)(O)O)[C@@H](O)[C@H]1O
Km (rep, dimer, ssDNA-bound (Escherichia coli, UniProt P09980, W250A); substrate): 2.8 µM

Nc1ncnc2c1ncn2[C@@H]1O[C@H](COP(=O)(O)OP(=O)(O)OP(=O)(O)O)[C@@H](O)[C@H]1O
peak current (P2X purinoceptor 2 (P2RX2, Homo sapiens, UniProt Q9UBL9); ion current, agonist, two-electrode voltage clamp; Xenopus oocytes; concentration not given, first maximal application): 4490 nA

COc1cc(CNC(=O)CCCC/C=C/C(C)C)ccc1O
calcium response (TRPV1 (Homo sapiens, UniProt Q8NER1); channel activation, FLIPR calcium; HEK293T; 0.00305 µM; higher = more activation): -0.645 a.u. and 3.15 a.u. and 0.807 a.u. and -0.528 a.u.

Cc1n[nH]c2ccc(-c3cc(OC[C@@H](N)Cc4ccccc4)cnc3-c3ccoc3)cc12
log2 fold change (Mitogen-activated protein kinase HOG1 (HOG1, Candida albicans, UniProt Q92207); MIB/MS competition binding; Candida albicans cell lysate; 1 µM; reference: DMSO, lower = stronger binding): 0.244

Cn1nc(Nc2ccc3c(c2)CN(C2CCC(=O)NC2=O)C3=O)c2ccccc21 (stereo not drawn)
degradation rate constant (Cereblon/Casein kinase I alpha (CSNK1A1/CRBN, Homo sapiens, UniProt P48729+Q96SW2); degrader, live-cell HiBiT kinetic; HEK293 LgBiT; 10 µM): 1.9 h⁻¹

Nc1ccc(C(=O)O)cc1
current density (BEST1, with wild-type BEST1 (Homo sapiens, UniProt O76090, D302A); ion current, whole-cell patch clamp; HEK293 co-expressing mutant and wild-type; concentration not given, voltage -60 mV): -8.6 pA/pF and -4.6 pA/pF and -9.43 pA/pF and -4.45 pA/pF and -10.5 pA/pF and -13.5 pA/pF

A few entries again:
Nc1ncnc2c1ncn2[C@@H]1O[C@H](COP(=O)(O)OP(=O)(O)OP(=O)(O)O)[C@@H](O)[C@H]1O
peak current (P2X purinoceptor 2 (P2RX2, Homo sapiens, UniProt Q9UBL9); ion current, agonist, two-electrode voltage clamp; Xenopus oocytes; concentration not given, first maximal application): 4490 nA
